{"data": "Measured values gathered from unrelated publications", "cell line": "Vero", "note": "Protocols differ between the studies behind these lines. Numbers after ± are the reported error."}
{"SMILES": "Cc1[nH]c(=S)[nH]c(=O)c1/N=N/c1nnc(S)[nH]1", "observed": "cell viability", "method": "MTT", "concentration": "0.625 µg/mL", "endpoint": "inhibition", "result": "9.993 ± 0.008%"}
{"SMILES": "CCC1NC2CC3(C(=O)N(OC)c4ccccc43)C3OCC2C1C3O (stereo not drawn)", "method": "CCK-8", "concentration": "up to 100 µM", "time": "24 h", "endpoint": "viability", "result": "no effect"}
{"SMILES": "C[OH+][Cu-2]12[O]C(c3cn(-c4ccccc4)nc3-c3ccc(C)cc3)=N[N+]1=C(C)c1c(cc(C)oc1=O)[O]2 (stereo not drawn)", "observed": "cell growth or viability", "method": "MTT", "time": "48 h", "endpoint": "IC50", "result": "53.9 µM"}
{"SMILES": "O=C(NCC(O)(Cn1cncn1)c1ccc(F)cc1F)[c-]1cccc1.[Cl-].[Co+3].c1cc[cH-]c1 (racemic)", "observed": "cell growth or viability", "method": "MTT", "time": "24 h", "endpoint": "IC50", "result": "476 µM"}
{"SMILES": "CCC1NC2CC3(C(=O)N(OC)c4cc(OC)ccc43)C3OCC2C1C3O (stereo not drawn)", "method": "CCK-8", "concentration": "up to 100 µM", "time": "24 h", "endpoint": "viability", "result": "no effect"}
{"SMILES": "C[OH+][Cu-2]12[O]C(c3cn(-c4ccccc4)nc3-c3ccc(F)cc3)=N[N+]1=C(C)c1c(cc(C)oc1=O)[O]2 (stereo not drawn)", "observed": "cell growth or viability", "method": "MTT", "time": "48 h", "endpoint": "IC50", "result": "42.2 µM"}
{"SMILES": "Cc1nc(=S)[nH]c(C)c1/N=N/c1nnc(S)[nH]1", "observed": "cell viability", "method": "MTT", "concentration": "2.5 µg/mL", "endpoint": "inhibition", "result": "20.6 ± 0.549%"}
{"SMILES": "OC(Cn1cncn1)(Cn1cc(-[c-]2cccc2)nn1)c1ccc(F)cc1F.[Cl-].[Co+3].c1cc[cH-]c1 (racemic)", "observed": "cell growth or viability", "method": "MTT", "time": "24 h", "endpoint": "IC50", "result": "110 µM"}
{"SMILES": "C[OH+][Cu-2]12[O]C(c3cn(-c4ccccc4)nc3-c3ccc(Br)cc3)=N[N+]1=C(C)c1c(cc(C)oc1=O)[O]2 (stereo not drawn)", "observed": "cell growth or viability", "method": "MTT", "time": "48 h", "endpoint": "IC50", "result": "49.8 µM"}
{"note": "Repeated from above:"}
{"SMILES": "OC(Cn1cncn1)(Cn1cc(-[c-]2cccc2)nn1)c1ccc(F)cc1F.[Cl-].[Co+3].c1cc[cH-]c1 (racemic)", "observed": "cell growth or viability", "method": "MTT", "time": "24 h", "endpoint": "IC50", "result": "110 µM"}
